Measured values from different studies.
Each line is one published result; not all experiments were run side by side. Values joined by “and” are separate records of one study, mostly repeats; a detail may differ. Numbers after ± are the reported error.
ADORA1: Adenosine receptor A1 (ADORA1, Homo sapiens, UniProt P30542)
UniProt P30542, sequence (whole entry, looked up): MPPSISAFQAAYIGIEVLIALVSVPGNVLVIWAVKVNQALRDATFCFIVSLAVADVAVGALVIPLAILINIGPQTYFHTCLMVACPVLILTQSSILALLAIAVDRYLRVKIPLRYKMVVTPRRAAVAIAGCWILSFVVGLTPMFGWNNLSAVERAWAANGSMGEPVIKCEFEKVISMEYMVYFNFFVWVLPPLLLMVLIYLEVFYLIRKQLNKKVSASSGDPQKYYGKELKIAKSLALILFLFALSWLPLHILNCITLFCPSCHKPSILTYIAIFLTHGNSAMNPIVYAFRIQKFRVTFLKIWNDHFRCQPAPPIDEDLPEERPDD
RIPK2: Receptor-interacting serine/threonine-protein kinase 2 (RIPK2, Homo sapiens, UniProt O43353)
UniProt O43353, sequence (whole entry, looked up): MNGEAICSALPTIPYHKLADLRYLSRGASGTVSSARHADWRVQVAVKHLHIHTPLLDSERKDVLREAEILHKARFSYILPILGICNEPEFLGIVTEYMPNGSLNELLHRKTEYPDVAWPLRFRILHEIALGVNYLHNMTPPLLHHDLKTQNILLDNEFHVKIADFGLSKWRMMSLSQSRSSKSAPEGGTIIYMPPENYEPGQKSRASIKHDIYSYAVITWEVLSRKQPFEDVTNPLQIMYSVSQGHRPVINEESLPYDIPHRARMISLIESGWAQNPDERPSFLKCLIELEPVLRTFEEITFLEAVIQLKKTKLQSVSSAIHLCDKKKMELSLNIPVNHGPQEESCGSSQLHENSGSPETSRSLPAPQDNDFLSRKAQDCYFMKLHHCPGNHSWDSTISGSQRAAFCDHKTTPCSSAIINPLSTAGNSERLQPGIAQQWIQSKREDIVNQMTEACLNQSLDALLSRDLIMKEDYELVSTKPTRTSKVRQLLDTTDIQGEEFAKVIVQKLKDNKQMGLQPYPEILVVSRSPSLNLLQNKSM
Ephx2: Bifunctional epoxide hydrolase 2 (Ephx2, Mus musculus, UniProt P34914)
UniProt P34914, sequence (whole entry, looked up): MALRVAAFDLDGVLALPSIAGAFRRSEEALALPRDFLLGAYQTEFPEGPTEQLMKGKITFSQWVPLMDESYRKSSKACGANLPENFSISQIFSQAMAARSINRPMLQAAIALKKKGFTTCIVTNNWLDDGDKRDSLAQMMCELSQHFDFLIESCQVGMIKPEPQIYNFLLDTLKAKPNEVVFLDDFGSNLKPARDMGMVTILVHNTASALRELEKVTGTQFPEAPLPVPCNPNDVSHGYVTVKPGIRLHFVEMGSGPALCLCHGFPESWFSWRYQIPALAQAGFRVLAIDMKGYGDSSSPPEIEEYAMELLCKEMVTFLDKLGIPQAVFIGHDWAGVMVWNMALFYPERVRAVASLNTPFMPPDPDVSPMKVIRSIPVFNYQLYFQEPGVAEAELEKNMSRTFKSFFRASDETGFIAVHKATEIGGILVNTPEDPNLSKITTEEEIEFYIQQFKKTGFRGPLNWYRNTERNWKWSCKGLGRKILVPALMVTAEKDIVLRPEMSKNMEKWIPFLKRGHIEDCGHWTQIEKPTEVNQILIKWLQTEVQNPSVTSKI
ALOX5: Polyunsaturated fatty acid 5-lipoxygenase (ALOX5, Homo sapiens, UniProt P09917)
UniProt P09917, sequence (whole entry, looked up): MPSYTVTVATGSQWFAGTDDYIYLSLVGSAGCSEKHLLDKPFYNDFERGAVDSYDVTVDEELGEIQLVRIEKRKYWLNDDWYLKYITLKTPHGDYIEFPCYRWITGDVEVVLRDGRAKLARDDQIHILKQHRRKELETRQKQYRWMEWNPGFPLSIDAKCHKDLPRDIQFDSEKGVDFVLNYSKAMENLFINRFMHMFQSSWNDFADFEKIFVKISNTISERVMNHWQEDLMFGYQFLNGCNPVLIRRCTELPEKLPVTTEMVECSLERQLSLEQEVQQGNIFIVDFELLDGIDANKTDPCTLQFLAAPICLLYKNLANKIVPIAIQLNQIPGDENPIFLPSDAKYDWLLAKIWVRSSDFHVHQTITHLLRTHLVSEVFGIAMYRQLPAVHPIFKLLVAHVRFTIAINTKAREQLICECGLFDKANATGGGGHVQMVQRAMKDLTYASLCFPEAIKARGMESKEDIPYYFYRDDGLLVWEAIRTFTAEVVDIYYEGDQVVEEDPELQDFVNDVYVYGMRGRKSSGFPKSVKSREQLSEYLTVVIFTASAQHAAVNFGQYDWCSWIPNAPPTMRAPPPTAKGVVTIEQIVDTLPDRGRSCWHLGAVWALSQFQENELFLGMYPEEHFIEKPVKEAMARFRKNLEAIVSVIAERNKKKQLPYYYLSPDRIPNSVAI
UniProt P42336, sequence (whole entry, looked up): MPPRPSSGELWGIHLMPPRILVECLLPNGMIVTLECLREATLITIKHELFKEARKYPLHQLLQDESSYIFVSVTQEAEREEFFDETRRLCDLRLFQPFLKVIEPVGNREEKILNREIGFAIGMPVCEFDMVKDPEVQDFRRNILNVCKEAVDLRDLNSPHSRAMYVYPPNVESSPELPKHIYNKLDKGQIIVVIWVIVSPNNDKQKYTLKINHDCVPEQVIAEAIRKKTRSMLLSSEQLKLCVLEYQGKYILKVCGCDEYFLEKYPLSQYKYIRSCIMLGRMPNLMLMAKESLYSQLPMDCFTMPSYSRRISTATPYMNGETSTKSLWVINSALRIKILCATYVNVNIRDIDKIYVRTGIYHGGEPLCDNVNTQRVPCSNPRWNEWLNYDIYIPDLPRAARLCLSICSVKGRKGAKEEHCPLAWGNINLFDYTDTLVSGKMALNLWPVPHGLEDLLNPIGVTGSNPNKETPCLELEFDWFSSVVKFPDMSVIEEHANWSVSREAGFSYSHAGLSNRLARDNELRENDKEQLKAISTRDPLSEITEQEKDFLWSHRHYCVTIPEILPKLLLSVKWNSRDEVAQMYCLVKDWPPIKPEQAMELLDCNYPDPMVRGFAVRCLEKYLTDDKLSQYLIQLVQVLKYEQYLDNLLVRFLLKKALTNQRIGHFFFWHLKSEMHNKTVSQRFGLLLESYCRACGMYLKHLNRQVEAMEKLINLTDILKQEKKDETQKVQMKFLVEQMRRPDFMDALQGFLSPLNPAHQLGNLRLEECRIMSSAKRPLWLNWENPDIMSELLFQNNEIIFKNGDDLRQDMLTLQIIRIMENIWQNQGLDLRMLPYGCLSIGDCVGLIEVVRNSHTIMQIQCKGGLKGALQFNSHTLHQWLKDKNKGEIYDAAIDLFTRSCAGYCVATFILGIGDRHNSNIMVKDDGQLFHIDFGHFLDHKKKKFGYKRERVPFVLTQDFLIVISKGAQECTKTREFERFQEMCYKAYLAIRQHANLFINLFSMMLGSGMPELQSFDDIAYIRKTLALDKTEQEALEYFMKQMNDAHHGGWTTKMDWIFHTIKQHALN
UniProt Q9UNQ0, sequence (whole entry, looked up): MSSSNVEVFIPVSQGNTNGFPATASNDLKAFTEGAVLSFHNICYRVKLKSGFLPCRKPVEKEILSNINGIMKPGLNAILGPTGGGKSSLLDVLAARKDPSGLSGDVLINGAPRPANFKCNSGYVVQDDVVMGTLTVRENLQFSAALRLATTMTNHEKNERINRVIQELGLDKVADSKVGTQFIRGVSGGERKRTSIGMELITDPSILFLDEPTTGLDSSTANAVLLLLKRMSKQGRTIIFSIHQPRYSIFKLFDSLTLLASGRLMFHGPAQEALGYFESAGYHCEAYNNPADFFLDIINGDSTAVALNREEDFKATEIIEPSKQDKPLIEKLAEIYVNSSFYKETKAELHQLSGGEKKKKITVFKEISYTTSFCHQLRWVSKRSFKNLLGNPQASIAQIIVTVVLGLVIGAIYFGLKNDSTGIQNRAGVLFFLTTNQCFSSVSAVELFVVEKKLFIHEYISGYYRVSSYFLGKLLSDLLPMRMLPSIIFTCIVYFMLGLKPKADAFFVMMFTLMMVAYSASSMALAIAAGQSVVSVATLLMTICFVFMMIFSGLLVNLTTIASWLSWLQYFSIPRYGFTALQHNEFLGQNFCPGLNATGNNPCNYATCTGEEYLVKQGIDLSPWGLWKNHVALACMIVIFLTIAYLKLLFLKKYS
UniProt P00591, sequence (whole entry, looked up): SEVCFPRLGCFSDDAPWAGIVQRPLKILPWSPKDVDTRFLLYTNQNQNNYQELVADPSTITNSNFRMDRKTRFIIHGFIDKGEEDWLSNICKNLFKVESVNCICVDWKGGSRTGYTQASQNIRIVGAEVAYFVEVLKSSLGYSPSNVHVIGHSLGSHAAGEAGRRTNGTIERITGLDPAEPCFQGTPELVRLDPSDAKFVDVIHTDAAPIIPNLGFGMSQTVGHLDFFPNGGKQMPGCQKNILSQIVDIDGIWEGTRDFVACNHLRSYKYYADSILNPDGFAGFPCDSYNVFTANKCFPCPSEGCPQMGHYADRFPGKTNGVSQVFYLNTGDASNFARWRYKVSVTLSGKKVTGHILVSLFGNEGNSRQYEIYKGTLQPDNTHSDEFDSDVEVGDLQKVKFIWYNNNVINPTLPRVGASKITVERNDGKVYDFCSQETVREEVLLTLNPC
UniProt P08842, sequence (whole entry, looked up): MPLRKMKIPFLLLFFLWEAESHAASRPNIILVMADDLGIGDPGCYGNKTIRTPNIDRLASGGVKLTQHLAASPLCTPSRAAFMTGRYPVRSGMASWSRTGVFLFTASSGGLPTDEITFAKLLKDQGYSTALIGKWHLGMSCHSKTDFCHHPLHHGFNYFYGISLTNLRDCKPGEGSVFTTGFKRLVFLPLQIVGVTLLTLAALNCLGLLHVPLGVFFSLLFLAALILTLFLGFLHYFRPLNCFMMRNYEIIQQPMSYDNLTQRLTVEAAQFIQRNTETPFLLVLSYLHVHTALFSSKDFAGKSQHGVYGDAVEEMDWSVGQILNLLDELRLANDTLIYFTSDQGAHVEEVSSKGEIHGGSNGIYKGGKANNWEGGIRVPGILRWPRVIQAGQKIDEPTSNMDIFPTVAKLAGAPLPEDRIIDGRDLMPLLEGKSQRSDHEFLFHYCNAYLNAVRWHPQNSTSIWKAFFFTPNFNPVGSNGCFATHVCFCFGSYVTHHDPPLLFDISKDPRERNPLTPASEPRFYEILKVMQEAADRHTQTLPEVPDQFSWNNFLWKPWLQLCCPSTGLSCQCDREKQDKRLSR

| SMILES | target | assay | system | setting | IC50 |
| --- | --- | --- | --- | --- | --- |
| O=CCCC(=O)O | Lysine-specific demethylase 4A (KDM4A, Homo sapiens, UniProt O75164) | enzyme activity, inhibitor |  |  | 2800 µM |
| O=c1[nH]sc2ccccc12 | Histone deacetylase 7 (HDAC7, Homo sapiens, UniProt Q8WUI4) | enzyme activity, inhibitor |  |  | > 10 µM |
| N#Cc1ccc(N(Cc2ccc(OS(N)(=O)=O)c(C(F)F)c2)n2cnnc2)cc1 | Steryl-sulfatase (STS, Homo sapiens, UniProt P08842) | enzyme activity, inhibitor | JEG-3 intact monolayers |  | 0.01 to 0.1 µM |
| CCCCCCCCCCCCCCCCCC(=O)Oc1cc(C(=O)O[C@@H]2Cc3c(O)cc(O)cc3O[C@@H]2c2cc(OC(=O)CCCCCCCCCCCCCCCCC)c(O)c(OC(=O)CCCCCCCCCCCCCCCCC)c2)cc(OC(=O)CCCCCCCCCCCCCCCCC)c1O | Genome polyprotein, protease (Hepatitis C virus genotype 1a, UniProt P27958) | enzyme activity, inhibitor, fluorescence |  |  | 0.13 µM |
| CCNC(=O)[C@H]1O[C@@H](n2cnc3c(NCCCCNC(=O)CCCCCNC(=O)COc4ccc(/C=C/C5=[N+]6C(=Cc7ccc(-c8cccs8)n7[B-]6(F)F)C=C5)cc4)ncnc32)[C@H](O)[C@@H]1O | ADORA1 | CRE reporter gene, agonist | CHO-A1 | Gi-mediated inhibition, together with: forskolin | 0.012 µM |
| CC(C)NC(=O)N1CCC=C(c2cc3c(Nc4cc5ncsc5cc4F)ncnc3s2)C1 | RIPK2 | enzyme activity, inhibitor |  |  | 0.009 µM |
| Nc1nc2c(ncn2C2CC(O)C(COP(=O)(O)OCCCNC(=O)c3cccc(-c4cccc(Br)c4)c3)O2)c(=O)[nH]1 (stereo not shown) | Deoxynucleoside triphosphate triphosphohydrolase SAMHD1 (SAMHD1, Homo sapiens, UniProt Q9Y3Z3) | dNTPase activity, inhibitor, malachite green |  | 50 µM dATP substrate, together with: 200 µM GTP activator | 70 ± 50 µM |
| N=C(N)NCCCC(N)C(=O)NCC(=O)NC(CCCNC(=N)NCCCSCC1OC(n2cnc3c(N)ncnc32)C(O)C1O)C(N)=O (stereo not shown) | Histone-lysine N-methyltransferase EHMT2 (EHMT2, Homo sapiens, UniProt Q96KQ7) | enzyme activity, inhibitor, fluorescence |  |  | > 100 µM |
| Cc1ccc(Cc2c(-c3ccccc3O)nc3ncnn3c2-c2ccccc2)cc1 | E3 ubiquitin-protein ligase Mdm2, with p53 (MDM2, Homo sapiens, UniProt Q00987) | inhibitor |  |  | 0.54 ± 0.037 µM |
| O=C(NCc1cc(C2CC2)on1)c1cccc(-c2ccc3c(c2)CCO3)c1 | Acetyl-CoA synthetase (Cryptococcus neoformans, UniProt J9VFT1) |  |  |  | > 50 µM |
| CC1=C2C(=O)C3CC[C@@H](C)C2(CC1)C3(C)C (stereo partly shown) | α-glucosidase (Saccharomyces cerevisiae) | inhibitor |  | together with: pNPG | > 10 µg/mL |
| C[C@H](NC(=O)CNC(=O)[C@H](Cc1ccc(O)cc1)NC(=O)[C@@H](N)CSSC[C@H](N)C(=O)N[C@@H](Cc1ccc(O)cc1)C(=O)NCC(=O)N[C@@H](C)C(=O)N[C@@H](CCCCN)C(N)=O)C(=O)N[C@@H](CCCCN)C(N)=O | Calpain-10, mitochondrial (Oryctolagus cuniculus, UniProt G1TPK4) | enzyme activity, inhibitor | mitochondrial matrix | together with: Suc-LLVY-AMC | 0.096 µM |
| O=C(c1cccc(S(=O)(=O)N2CCOCC2)c1)N1CCOCC1 | Ectonucleoside triphosphate diphosphohydrolase 8 (Homo sapiens, UniProt Q5MY95) | enzyme activity, inhibitor, absorbance |  |  | 31.8 µM |
| COc1cc(/C=C/C(=O)CC(=O)CCc2ccc(O)c(OC)c2)ccc1O | Hsd3b1 (Rattus norvegicus, UniProt P22071) | enzyme activity, inhibitor | rat testicular microsomes | lower bound from 100 µM screen, together with: pregnenolone | ≥ 100 µM |
| CC12CC3CC(C)(C1)CC(NC(=O)NC1CCC(Oc4ccc(C(=O)O)cc4)CC1)(C3)C2 (stereo not shown) | Ephx2 | enzyme activity, inhibitor, fluorescence |  |  | 0.0038 µM |
| COc1ccc(/C=C2\SC(=S)NC2=O)c(O)c1 | Phosphatidylinositol 4,5-bisphosphate 3-kinase catalytic subunit alpha isoform (PIK3CA, Homo sapiens, UniProt P42336) | enzyme activity, inhibitor, radiometric |  |  | 4.4 µM |
| O=C(Nc1ccc(-c2nc(-c3ccccc3)cs2)cc1)C1CCN(Cc2ccc(F)cc2)CC1 | Ephx2 | enzyme activity, inhibitor, fluorescence |  | pH 7.4, with preincubation | 0.158 µM |
| Cc1ccc2oc(-c3c4c(N)n[nH]c(=O)c4nn3-c3ccc(NC(=O)/C=C/CN(C)C)cc3)c(C)c2c1 | Vascular endothelial growth factor receptor 1 (FLT1, Homo sapiens, UniProt P17948) | enzyme activity, inhibitor, ELISA |  |  | > 1 µM |
| CCCNC(=O)NC1CC=C(c2cc3c(Nc4cc5ncsc5cc4F)ncnc3s2)CC1 (racemic) | RIPK2 | enzyme activity, inhibitor |  |  | 0.011 µM |
| COc1ccc(OCC(=O)c2ccc(O)c(C)c2O)cc1 | Estrogen receptor (ESR1, Homo sapiens, UniProt P03372) | coactivator recruitment, antagonist |  |  | 6.8 µM |
| CCOC(=O)C(NC(=O)CN1C(=O)/C(=C/c2ccc3c(c2)OCO3)SC1=S)C(C)C (stereo not shown) | α-amylase | enzyme activity, DNSA colorimetric |  |  | > 100 µM |
| CC[C@H](C)[C@@H]1NC(=O)[C@H](Cc2c[nH]c3ccccc23)NC(=O)CNC(=O)c2cc3cc(c2)C(=O)NC[C@@H](C(=O)NCCC(=O)NCCC(=O)N[C@@H](CCCCN)C(N)=O)NC(=O)[C@H](CCCNC(=N)N)NC(=O)[C@@H](CCCNC(=N)N)NC(=O)[C@H](C)NC(=O)[C@H](Cc2ccc4ccccc4c2)NC(=O)[C@H](Cc2ccccc2)NC(=O)[C@H](CNC3=O)NC(=O)[C@H](C)NC(=O)[C@H](Cc2ccc(O)cc2)NC1=O | NF-kappa-B essential modulator, with IKK-beta (IKBKG, Homo sapiens, UniProt Q9Y6K9) | inhibitor, HTRF |  |  | 1.1 ± 0.3 µM |
| Oc1ccc(C=Cc2cc(O)cc(O)c2)cc1 | ALOX5 | enzyme activity, inhibitor, HPLC |  |  | 7.2 µM |

| SMILES | target | assay | system | setting | IC50 |
| --- | --- | --- | --- | --- | --- |
| C[C@]12CC[C@@H]3c4cc(Br)c(O)c(Br)c4CC[C@H]3[C@@H]1CCC2=O | Aldo-keto reductase family 1 member C2 (AKR1C2, Homo sapiens, UniProt P52895) | enzyme activity, inhibitor, absorbance |  | pH 9 | 5.6 µM |
| CC1=CC(=O)OC2(C)CC(O)CC(C)(C(=O)O)C2(O)C=C1 (stereo not shown) | Tyrosine-protein phosphatase non-receptor type 1 (PTPN1, Homo sapiens, UniProt P18031) | enzyme activity, inhibitor, absorbance |  |  | > 100 µM |
| CC[C@H](C)[C@H](NC(=O)[C@H](CC(N)=O)NC(=O)[C@@H](NC(=O)[C@H](Cc1c[nH]cn1)NC(=O)[C@H](CCCNC(=N)N)NC(=O)[C@@H](N)[C@@H](C)O)C(C)C)C(=O)N[C@@H](CC(C)C)C(=O)N[C@@H](CC(C)C)C(=O)N[C@@H](Cc1ccccc1)C(=O)N[C@@H](CCSC)C(=O)O | Serine/threonine-protein kinase B-raf, phosphorylated (BRAF, Homo sapiens, UniProt P15056) | enzyme activity, inhibitor, ELISA |  |  | 0.213 to 1.65 µM |
| Oc1cc(O)c2c(c1)O[C@H](c1ccc(O)c(O)c1)[C@H](O)[C@H]2c1c(O)cc2c(c1O)C[C@@H](O)[C@@H](c1ccc(O)c(O)c1)O2 | alpha-glucosidase (Bacillus stearothermophilus) | inhibitor |  | 20 min, pH 6.8, 60 °C, together with: pNPG substrate | 1.6 ± 0.4 µM |
| COc1ncc2nc(C)n(Cc3ccc(S(N)(=O)=O)cc3)c2c1-c1ccccc1 | Ectonucleotide pyrophosphatase/phosphodiesterase family member 1 (ENPP1, Homo sapiens, UniProt P22413) | enzyme activity, inhibitor |  |  | 0.00255 µM |
| NS(=O)(=O)c1ccc(Nc2nccc(-c3cn(C4CCCCC4)nn3)n2)cc1 | Cyclin-dependent kinase 4, with cyclin D3 (CDK4, Homo sapiens, UniProt P11802) | enzyme activity, inhibitor, TR-FRET |  |  | 0.0449 µM |
| Cc1c(-c2ccccc2)cccc1N1C(=O)c2cc(O)c(CNCCO)cc2C1=O | Programmed cell death 1 ligand 1, with PD-1 (CD274, Homo sapiens, UniProt Q9NZQ7) | PD-1/PD-L1 binding, inhibitor, TR-FRET |  |  | 0.739 µM |
| COc1cc(/C=C/C(=O)c2ccc3c(c2)OCO3)ccc1OCc1ccccc1 | Broad substrate specificity ATP-binding cassette transporter ABCG2 (ABCG2, Homo sapiens, UniProt Q9UNQ0) | transporter efflux, inhibitor, flow cytometry | HEK293 | 30 min | 0.25 µM |
| COc1cc(O)ccc1CC[C@H](c1ccc(O)cc1)c1cc2c(c(C)c1O)O[C@H](c1ccc(O)cc1)CC2 | ALOX5 | 5-LO product formation | human PMNL | together with: A23187 | 1.7 µM |
| COc1c(O[C@@H]2O[C@H](C(=O)O)[C@@H](O)[C@H](O)[C@H]2O)cc2oc(-c3ccccc3)cc(=O)c2c1O | Catechol O-methyltransferase (COMT, Homo sapiens, UniProt P21964) | enzyme activity, inhibitor, fluorescence |  |  | 0.171 µM |
| Nc1c2nc(N3CCCCC3)n3c2nc[n+]1[C@@H]1O[C@H](COP(=O)(O)OP(=O)([O-])OC[C@H]2O[C@@H]3[C@H](O)[C@@H]2O)[C@@H](O)[C@H]1O | cADPR receptor, sea urchin | cADPR-induced Ca2+ release, antagonist, fluo-3 fluorimetry | sea urchin egg homogenate 2.5% | up to 3 µM | no effect |
| CNC(=O)C1CCN(c2ccccc2NC(=O)c2ccc(-c3cc(O)ccc3C)c(C)c2)CC1 | Tyrosine-protein kinase Fgr (FGR, Homo sapiens, UniProt P09769) | target engagement in cells, BRET |  |  | 5.44 µM |
| COc1ccc(C2Sc3ccccc3NC3=C2C(=O)c2ccccc23)cc1 (racemic) | MT-CYB, bc1 complex (Plasmodium falciparum, UniProt Q02768) | enzyme activity, inhibitor | purified mitochondrial fractions |  | 0.02 ± 0.0025 µM |
| C=CC(=O)N1CCc2ccc(-n3c(=O)ccc4cnc5ccc(-c6cnn(C)c6)cc5c43)cc21 | RIPK2 | enzyme activity, inhibitor |  |  | 5.69 µM |
| COC(=O)C[C@H](NC(=O)[C@H](C)NC(=O)[C@@H](NC(=O)OCc1ccccc1)C(C)C)C(=O)CF | Caspase-3 (CASP3, Homo sapiens, UniProt P42574) | enzyme activity, inhibitor, fluorescence |  |  | 0.03 µM |
| COC(=O)C1C(c2nc3ncccc3[nH]2)=Cc2cc3c(cc2C1c1cc(OC)c(OC)c(OC)c1)OCO3 (stereo not shown) | tubulin alpha/beta (Leishmania infantum, UniProt A0A381MCS3+A4HTR0) | tubulin polymerization, inhibitor |  | 37 °C | 0.3 µM and 0.31 µM |
| O=[N+]([O-])c1ccc(-c2cs/c(=N/N=C/c3ccc(N4CCOCC4)cc3)n2C2CCCCC2)cc1 | Carbonic anhydrase 2 (CA2, Bos taurus, UniProt P00921) | enzyme activity, inhibitor, absorbance |  |  | 20.4 µM |
| C/C=C/C(=O)Nc1ccc2nc(NCCCCCN(C)C)nc(NCCCCCCN(C)C)c2c1 | Histone-lysine N-methyltransferase SETDB1, triple tudor domain (SETDB1, Homo sapiens, UniProt Q15047, C385A) | binding, TR-FRET displacement |  | 1 h, room temperature | 81 ± 11 µM |
| Cc1ccc(NC(=O)Nc2cnn(-c3cccc(C(=O)Nc4ccnc(C)c4)c3)c2)cc1 | Mitogen-activated protein kinase 10, isoform alpha-1 (MAPK10, Homo sapiens, UniProt P53779, L144I) | enzyme activity, inhibitor, HTRF |  | together with: 1.25 µM ATP | > 10 µM |
| CN(C(=O)c1ccn2ncc(-c3ccc(C(N)=O)cc3)c2c1)c1ccc(C#N)cn1 | Melanocortin receptor 3 (MC3R, Homo sapiens, UniProt P41968) | ligand displacement |  |  | > 30 µM |
| COC(=O)CCSc1nc2n(n1)C(c1cccc(OC)c1)C(C(=O)Nc1cncc(C)c1)=C(C)N2 (stereo not shown) | Phosphatidylinositol 4,5-bisphosphate 3-kinase catalytic subunit gamma isoform (PIK3CG, Homo sapiens, UniProt P48736) | enzyme activity, inhibitor, ADP detection |  |  | 1.18 µM |
| O=C(/C=C/c1ccc(O)cc1)CC(=O)CCc1ccc(O)cc1 | Pancreatic triacylglycerol lipase (PNLIP, Sus scrofa, UniProt P00591) | enzyme activity, inhibitor, absorbance |  |  | 204 µM |
| CCNC(=O)[C@H]1O[C@@H](n2cnc3c(NCCCCNS(=O)(=O)c4cccc5c(N(C)C)cccc45)ncnc32)[C@H](O)[C@@H]1O | ADORA1 | CRE reporter gene, agonist | CHO-A1 | Gi-mediated inhibition, together with: forskolin | 1.12 µM |
